Measured values pooled from the literature.
Numbers after ± are the reported error.

N=C(N)NCCC[C@@H]1NC(=O)[C@H](CCCCNC(=O)CNC(=O)CNC(=O)CNC(=O)CC[C@H](NC(=O)CNC(=O)CNC(=O)CNC(=O)c2ccc(NN=Cc3ccccc3S(=O)(=O)O)nc2)C(=O)NCC(=O)NCC(=O)NCC(=O)NCCCC[C@@H]2NC(=O)[C@@H](Cc3ccccc3)NC(=O)[C@H](CC(=O)O)NC(=O)CNC(=O)[C@H](CCCNC(=N)N)NC2=O)NC(=O)[C@@H](Cc2ccccc2)NC(=O)[C@H](CC(=O)O)NC(=O)CNC1=O [technetium-99m labelled]
tissue uptake (athymic nu/nu mouse, female, MDA-MB-435 xenograft, blood; intravenous, 30 min): 1.09 ± 0.2 %ID/g

CCCC[C@H](NC(=O)CNC(=O)CNC(=O)c1ccc(NN)nc1)C(=O)N[C@H]1CC(=O)NCCCC[C@@H](C(N)=O)NC(=O)[C@H](Cc2c[nH]c3ccccc23)NC(=O)[C@H](CCCNC(=N)N)NC(=O)[C@@H](Cc2ccccc2)NC(=O)[C@H](Cc2c[nH]cn2)NC1=O [technetium-99m labelled]
tissue uptake (C57 mouse, B16/F1 melanoma-bearing, muscle; intravenous, 24 h): 0.03 ± 0.01 %ID/g

N=C(N)NCCC[C@@H]1NC(=O)[C@H](CCCCNC(=O)CCOCCOCCOCCOCCNC(=O)CC[C@H](NC(=O)CCOCCOCCOCCOCCNC(=O)CC[C@H](NC(=O)CN2CCN(CC(=O)O)CCN(CC(=O)O)CCN(CC(=O)O)CC2)C(=O)NCCOCCOCCOCCOCCC(=O)N[C@@H](CCC(=O)NCCOCCOCCOCCOCCC(=O)NCCCC[C@@H]2NC(=O)[C@@H](Cc3ccccc3)NC(=O)[C@H](CC(=O)O)NC(=O)CNC(=O)[C@H](CCCNC(=N)N)NC2=O)C(=O)NCCOCCOCCOCCOCCC(=O)NCCCC[C@@H]2NC(=O)[C@@H](Cc3ccccc3)NC(=O)[C@H](CC(=O)O)NC(=O)CNC(=O)[C@H](CCCNC(=N)N)NC2=O)C(=O)NCCOCCOCCOCCOCCC(=O)NCCCC[C@@H]2NC(=O)[C@@H](Cc3ccccc3)NC(=O)[C@H](CC(=O)O)NC(=O)CNC(=O)[C@H](CCCNC(=N)N)NC2=O)NC(=O)[C@@H](Cc2ccccc2)NC(=O)[C@H](CC(=O)O)NC(=O)CNC1=O [indium-111 labelled]
tissue uptake (female athymic nude mice, blood; intravenous, 3 µCi, 24 h, U-87 MG glioma xenograft): 0.12 ± 0.02 %ID/g

CSCC[C@H](NC(=O)[C@H](CC(C)C)NC(=O)[C@H](Cc1c[nH]cn1)NC(=O)CNC(=O)[C@@H](NC(=O)[C@H](C)NC(=O)[C@H](Cc1c[nH]c2ccccc12)NC(=O)[C@H](CCC(N)=O)NC(=O)CCCCCCCNC(=O)CCC(=O)Nc1ccc(CNC23CNCCNCC(N)(CNCCNC2)CNCCNC3)cc1)C(C)C)C(N)=O [copper-64 labelled]
tissue uptake (female SCID mice, PC-3 xenograft, kidney; intravenous, 0.6 MBq, 24 h): 5.16 ± 0.284 %ID/g

CSCC[C@H](NC(=O)[C@H](CC(C)C)NC(=O)[C@H](Cc1c[nH]cn1)NC(=O)CNC(=O)[C@@H](NC(=O)[C@H](C)NC(=O)[C@H](Cc1c[nH]c2ccccc12)NC(=O)[C@H](CCC(N)=O)NC(=O)CCCCCNC(=O)CNC(=O)CNC(=O)CNC(=O)CSC(C)=O)C(C)C)C(N)=O [technetium-99m labelled]
tissue uptake (nude mouse, PC-3 xenograft, heart; 30 min): 0.34 ± 0.08 %ID/g

N=C(N)NCCC[C@@H]1NC(=O)[C@H](CCCCNC(=O)CC[C@H](NC(=O)CCOCCOCCOCCOCCNC(=O)CN2CCN(CC(=O)O)CCN(CC(=O)O)CCN(CC(=O)O)CC2)C(=O)NCCCC[C@@H]2NC(=O)[C@@H](Cc3ccccc3)NC(=O)[C@H](CC(=O)O)NC(=O)CNC(=O)[C@H](CCCNC(=N)N)NC2=O)NC(=O)[C@@H](Cc2ccccc2)NC(=O)[C@H](CC(=O)O)NC(=O)CNC1=O [indium-111 labelled]
tissue uptake (female athymic nude mice, intestine; intravenous, 3 µCi, 72 h, U-87 MG glioma xenograft): 1.3 ± 0.52 %ID/g

CSCC[C@H](NC(=O)[C@H](CC(C)C)NC(=O)[C@H](Cc1c[nH]cn1)NC(=O)CNC(=O)[C@@H](NC(=O)[C@H](C)NC(=O)[C@H](Cc1c[nH]c2ccccc12)NC(=O)[C@H](CCC(N)=O)NC(=O)[C@H](CC(N)=O)NC(=O)CNC(=O)[C@H](Cc1ccc(O)cc1)NC(=O)[C@H](CCCNC(=N)N)NC(=O)[C@H](CCC(N)=O)NC(=O)[C@@H]1CCCN1C(=O)CN1CCN(CC(=O)O)CCN(CC(=O)O)CCN(CC(=O)O)CC1)C(C)C)C(N)=O [indium-111 labelled]
tissue uptake (Swiss nu/nu mouse, male, PC-3 tumour xenograft, pancreas; intravenous, 10 pmol, 4 h): 8.9 ± 2.1 %ID/g

N=C(N)NCCC[C@@H]1NC(=O)[C@H](CCCCNC(=O)CC[C@H](NC(=O)CCOCCOCCOCCOCCNC(=O)CC[C@H](NC(=O)CN2CCN(CC(=O)O)CCN(CC(=O)O)CCN(CC(=O)O)CC2)C(=O)NCCOCCOCCOCCOCCC(=O)N[C@@H](CCC(=O)NCCCC[C@@H]2NC(=O)[C@@H](Cc3ccccc3)NC(=O)[C@H](CC(=O)O)NC(=O)CNC(=O)[C@H](CCCNC(=N)N)NC2=O)C(=O)NCCCC[C@@H]2NC(=O)[C@@H](Cc3ccccc3)NC(=O)[C@H](CC(=O)O)NC(=O)CNC(=O)[C@H](CCCNC(=N)N)NC2=O)C(=O)NCCCC[C@@H]2NC(=O)[C@@H](Cc3ccccc3)NC(=O)[C@H](CC(=O)O)NC(=O)CNC(=O)[C@H](CCCNC(=N)N)NC2=O)NC(=O)[C@@H](Cc2ccccc2)NC(=O)[C@H](CC(=O)O)NC(=O)CNC1=O [indium-111 labelled]
tissue uptake (female athymic nude mice, lungs; intravenous, 3 µCi, 0.5 h, U-87 MG glioma xenograft): 3.19 ± 0.78 %ID/g

N=C(N)NCCC[C@@H]1NC(=O)[C@H](CC(=O)NC23CNCCNCC(N)(CNCCNC2)CNCCNC3)NC(=O)[C@@H](Cc2ccccc2)NC(=O)[C@H](CC(=O)O)NC(=O)CNC1=O [copper-64 labelled]
tissue uptake (Nu/Nu mouse, male, tumour-bearing, spleen; intravenous, 10 µCi, 1 h): 1.08 ± 0.34 %ID/g

Excerpt of the above:
N=C(N)NCCC[C@@H]1NC(=O)[C@H](CCCCNC(=O)CC[C@H](NC(=O)CCOCCOCCOCCOCCNC(=O)CN2CCN(CC(=O)O)CCN(CC(=O)O)CCN(CC(=O)O)CC2)C(=O)NCCCC[C@@H]2NC(=O)[C@@H](Cc3ccccc3)NC(=O)[C@H](CC(=O)O)NC(=O)CNC(=O)[C@H](CCCNC(=N)N)NC2=O)NC(=O)[C@@H](Cc2ccccc2)NC(=O)[C@H](CC(=O)O)NC(=O)CNC1=O [indium-111 labelled]
tissue uptake (female athymic nude mice, intestine; intravenous, 3 µCi, 72 h, U-87 MG glioma xenograft): 1.3 ± 0.52 %ID/g
